Assay results of several laboratories.
A part holds a random share of what one study measured. Several values in a cell are separate wells, animals, samples, runs or records. In brackets after ≈: the same amount, converted by molar mass.
UniProt P42336, sequence (whole entry, unmodified, looked up): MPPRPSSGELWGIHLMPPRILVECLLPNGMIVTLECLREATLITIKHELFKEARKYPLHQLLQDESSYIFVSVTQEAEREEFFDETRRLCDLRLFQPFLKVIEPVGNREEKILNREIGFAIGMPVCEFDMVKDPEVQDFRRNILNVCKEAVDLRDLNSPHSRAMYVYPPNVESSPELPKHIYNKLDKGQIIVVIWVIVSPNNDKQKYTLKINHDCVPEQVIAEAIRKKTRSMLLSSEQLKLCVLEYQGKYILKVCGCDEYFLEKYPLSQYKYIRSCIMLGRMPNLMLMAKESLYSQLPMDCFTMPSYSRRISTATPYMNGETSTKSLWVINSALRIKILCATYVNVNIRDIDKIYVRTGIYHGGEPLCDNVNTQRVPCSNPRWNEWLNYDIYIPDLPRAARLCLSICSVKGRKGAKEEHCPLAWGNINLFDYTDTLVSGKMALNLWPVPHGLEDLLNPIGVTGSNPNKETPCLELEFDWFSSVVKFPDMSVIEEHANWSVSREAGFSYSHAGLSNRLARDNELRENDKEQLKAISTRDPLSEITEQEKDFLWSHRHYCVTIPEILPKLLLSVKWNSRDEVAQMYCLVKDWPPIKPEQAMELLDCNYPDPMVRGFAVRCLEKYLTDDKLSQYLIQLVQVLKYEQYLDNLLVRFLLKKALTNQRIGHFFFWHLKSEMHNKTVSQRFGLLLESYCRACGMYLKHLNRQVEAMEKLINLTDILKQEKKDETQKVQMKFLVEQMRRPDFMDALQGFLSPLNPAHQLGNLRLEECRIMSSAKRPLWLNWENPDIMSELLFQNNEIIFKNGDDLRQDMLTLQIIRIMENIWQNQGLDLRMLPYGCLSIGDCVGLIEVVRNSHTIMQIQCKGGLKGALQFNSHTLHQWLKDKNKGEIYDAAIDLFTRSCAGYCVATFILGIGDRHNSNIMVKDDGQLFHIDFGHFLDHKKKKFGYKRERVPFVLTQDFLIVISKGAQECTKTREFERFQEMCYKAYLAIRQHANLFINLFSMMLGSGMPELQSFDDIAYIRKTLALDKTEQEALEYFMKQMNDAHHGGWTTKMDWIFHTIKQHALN
UniProt O43318, sequence (whole entry, looked up): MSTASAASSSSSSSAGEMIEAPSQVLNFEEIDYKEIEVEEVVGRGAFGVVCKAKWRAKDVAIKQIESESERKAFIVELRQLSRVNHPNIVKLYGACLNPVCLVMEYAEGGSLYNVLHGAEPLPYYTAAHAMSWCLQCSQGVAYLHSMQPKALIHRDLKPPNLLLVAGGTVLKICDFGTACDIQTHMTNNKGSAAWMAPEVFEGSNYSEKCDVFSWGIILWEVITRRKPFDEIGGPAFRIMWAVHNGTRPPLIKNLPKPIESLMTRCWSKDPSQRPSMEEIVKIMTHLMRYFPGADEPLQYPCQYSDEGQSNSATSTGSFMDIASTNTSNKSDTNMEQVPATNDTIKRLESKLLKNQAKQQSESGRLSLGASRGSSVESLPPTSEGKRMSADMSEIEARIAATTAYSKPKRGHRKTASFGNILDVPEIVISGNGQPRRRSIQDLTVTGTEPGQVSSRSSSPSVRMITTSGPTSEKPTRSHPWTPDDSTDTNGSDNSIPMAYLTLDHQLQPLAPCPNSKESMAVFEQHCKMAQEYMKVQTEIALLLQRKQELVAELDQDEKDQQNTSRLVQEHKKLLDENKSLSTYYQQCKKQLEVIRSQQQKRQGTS
UniProt P48729, sequence (whole entry, looked up): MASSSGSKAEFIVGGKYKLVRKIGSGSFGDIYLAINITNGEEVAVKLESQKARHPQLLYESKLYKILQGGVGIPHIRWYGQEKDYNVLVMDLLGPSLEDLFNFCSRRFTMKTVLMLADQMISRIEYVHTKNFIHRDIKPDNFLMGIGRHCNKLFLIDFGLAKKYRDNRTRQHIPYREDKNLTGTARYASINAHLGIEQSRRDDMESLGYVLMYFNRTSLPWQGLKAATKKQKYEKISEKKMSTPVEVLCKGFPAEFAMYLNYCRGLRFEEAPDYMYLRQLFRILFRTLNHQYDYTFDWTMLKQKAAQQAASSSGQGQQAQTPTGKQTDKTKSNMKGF
UniProt Q8NE63, sequence (whole entry, looked up): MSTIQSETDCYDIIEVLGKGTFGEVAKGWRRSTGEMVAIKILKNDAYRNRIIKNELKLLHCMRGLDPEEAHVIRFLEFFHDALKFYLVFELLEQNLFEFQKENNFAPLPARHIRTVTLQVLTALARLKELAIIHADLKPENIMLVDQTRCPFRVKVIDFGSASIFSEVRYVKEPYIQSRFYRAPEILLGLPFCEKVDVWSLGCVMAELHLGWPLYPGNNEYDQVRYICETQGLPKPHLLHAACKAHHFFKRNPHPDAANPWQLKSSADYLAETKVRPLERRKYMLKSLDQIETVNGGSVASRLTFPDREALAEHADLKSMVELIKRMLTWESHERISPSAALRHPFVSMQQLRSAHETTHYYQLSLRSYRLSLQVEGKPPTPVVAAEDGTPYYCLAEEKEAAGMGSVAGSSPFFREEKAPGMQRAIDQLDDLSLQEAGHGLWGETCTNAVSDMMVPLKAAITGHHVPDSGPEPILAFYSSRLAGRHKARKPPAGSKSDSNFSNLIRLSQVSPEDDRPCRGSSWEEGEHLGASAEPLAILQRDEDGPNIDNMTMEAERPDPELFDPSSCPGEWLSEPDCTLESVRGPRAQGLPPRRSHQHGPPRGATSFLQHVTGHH
UniProt Q07912, sequence (whole entry, looked up): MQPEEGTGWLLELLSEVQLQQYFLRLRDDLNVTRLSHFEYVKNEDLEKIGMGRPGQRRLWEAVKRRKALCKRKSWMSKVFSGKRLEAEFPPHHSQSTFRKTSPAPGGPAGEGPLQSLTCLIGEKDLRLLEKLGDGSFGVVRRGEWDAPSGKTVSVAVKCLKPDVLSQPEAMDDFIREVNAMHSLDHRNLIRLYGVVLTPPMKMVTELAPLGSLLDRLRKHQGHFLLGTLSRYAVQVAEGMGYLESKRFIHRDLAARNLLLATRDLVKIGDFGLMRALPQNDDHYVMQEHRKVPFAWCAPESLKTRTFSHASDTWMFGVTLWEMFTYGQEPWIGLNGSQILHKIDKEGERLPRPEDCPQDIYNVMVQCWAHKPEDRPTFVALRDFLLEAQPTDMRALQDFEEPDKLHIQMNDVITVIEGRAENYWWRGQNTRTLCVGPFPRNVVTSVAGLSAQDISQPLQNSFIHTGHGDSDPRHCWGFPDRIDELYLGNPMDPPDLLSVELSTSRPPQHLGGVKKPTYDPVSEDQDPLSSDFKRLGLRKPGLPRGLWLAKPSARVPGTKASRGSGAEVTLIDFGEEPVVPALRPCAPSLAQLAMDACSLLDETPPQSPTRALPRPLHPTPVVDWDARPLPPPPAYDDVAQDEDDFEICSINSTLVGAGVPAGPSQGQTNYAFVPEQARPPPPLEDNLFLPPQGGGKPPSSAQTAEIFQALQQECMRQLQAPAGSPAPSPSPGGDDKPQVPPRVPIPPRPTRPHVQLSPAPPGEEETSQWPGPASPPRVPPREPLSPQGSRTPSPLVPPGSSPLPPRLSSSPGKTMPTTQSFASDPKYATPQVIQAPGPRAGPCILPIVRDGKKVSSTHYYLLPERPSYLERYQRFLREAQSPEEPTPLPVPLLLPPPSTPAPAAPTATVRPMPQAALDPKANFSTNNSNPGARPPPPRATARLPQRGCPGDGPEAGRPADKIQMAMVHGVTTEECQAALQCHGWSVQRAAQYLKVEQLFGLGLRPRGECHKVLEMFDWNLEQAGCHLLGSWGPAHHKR
UniProt Q9Y2H1, sequence (whole entry, looked up): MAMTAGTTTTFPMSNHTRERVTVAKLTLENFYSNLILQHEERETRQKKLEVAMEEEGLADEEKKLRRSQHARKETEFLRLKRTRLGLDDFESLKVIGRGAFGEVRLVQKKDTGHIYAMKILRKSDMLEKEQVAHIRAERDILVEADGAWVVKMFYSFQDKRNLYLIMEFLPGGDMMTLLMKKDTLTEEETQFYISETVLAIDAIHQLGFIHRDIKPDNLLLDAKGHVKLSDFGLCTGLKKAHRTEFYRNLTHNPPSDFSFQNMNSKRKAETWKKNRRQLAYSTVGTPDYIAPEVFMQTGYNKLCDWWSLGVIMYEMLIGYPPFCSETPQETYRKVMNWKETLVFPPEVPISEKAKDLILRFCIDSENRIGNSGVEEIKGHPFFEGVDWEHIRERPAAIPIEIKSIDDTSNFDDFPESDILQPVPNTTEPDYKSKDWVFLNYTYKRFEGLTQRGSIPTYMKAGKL
UniProt Q9BRS2, sequence (whole entry, looked up): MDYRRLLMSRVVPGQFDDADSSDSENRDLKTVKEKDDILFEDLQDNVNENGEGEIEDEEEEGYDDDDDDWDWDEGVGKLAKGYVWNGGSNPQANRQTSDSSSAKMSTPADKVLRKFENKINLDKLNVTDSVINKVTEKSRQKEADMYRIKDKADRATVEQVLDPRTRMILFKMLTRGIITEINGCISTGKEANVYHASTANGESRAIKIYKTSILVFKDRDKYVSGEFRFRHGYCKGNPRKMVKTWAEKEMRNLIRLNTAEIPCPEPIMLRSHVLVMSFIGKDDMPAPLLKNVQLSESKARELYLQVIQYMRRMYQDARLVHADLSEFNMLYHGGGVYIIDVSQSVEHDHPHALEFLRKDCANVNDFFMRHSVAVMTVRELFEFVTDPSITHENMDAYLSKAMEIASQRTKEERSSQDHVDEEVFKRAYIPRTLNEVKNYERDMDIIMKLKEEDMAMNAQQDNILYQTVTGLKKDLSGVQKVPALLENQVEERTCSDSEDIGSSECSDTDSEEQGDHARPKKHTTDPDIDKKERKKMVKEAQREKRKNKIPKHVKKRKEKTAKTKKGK

Series 1
SMILES: CCCCC[C@@H](O)CC(=O)N[C@H]1COC(=O)[C@H](CO)NC(=O)CNC(=O)[C@H]([C@@H](C)O)NC(=O)[C@H](Cc2ccccc2)NC(=O)[C@@H](Cc2c[nH]c3ccccc23)NC(=O)[C@@H]([C@H](C)O)NC(=O)[C@H](CC(N)=O)NC(=O)[C@@H]([C@H](C)O)NC(=O)[C@H](CC(C)C)NC(=O)[C@@H](Cc2c[nH]c3ccccc23)N(C)C(=O)CNC(=O)[C@H](CO)NC(=O)[C@@H](CO)NC1=O
Organism: Staphylococcus aureus
Strain: USA300
added: menaquinone 1 µg/mL — MIC: 64 µg/mL (≈ 38.4 µM).
The MIC was 64 µg/mL (≈ 38.4 µM) (added: menaquinone 2 µg/mL).
added: menaquinone 64 µg/mL — MIC: over 64 µg/mL.
For added: ubiquinone 16 µg/mL: MIC read 8 µg/mL (≈ 4.79 µM).
added: menaquinone 0.0625 µg/mL — MIC: 8 µg/mL (≈ 4.79 µM).
For added: menaquinone 32 µg/mL: MIC read over 64 µg/mL.

Series 2
SMILES: CNC(=O)c1ccc(-c2cnn3ccc(C(=O)N(C)c4ccc(Cl)c(C(=O)OC)c4)cc23)cc1
Organism: Cryptosporidium parvum
Species: neonatal calves
Dose: dose not given
Reading: direction not given
The “fecal consistency score” was 1 and 2 (day 6 post-treatment).
For day 3 post-treatment: “fecal consistency score” read 3 and 1 and 2.
It gave 1 and 2 for “fecal consistency score” (day 8 post-treatment).

Series 3
Organism: Plasmodium berghei
Action: inhibitor
Cell line: Huh-7
Strain: liver stage
Tested at: 10 µM
Time: 24 h
Reference: untreated control
With `NC(=O)C[S+]([O-])C(c1ccccc1)c1ccccc1` (centres unmarked) the infection rate was 77.2%.
For `C[N+]1(C)[C@@H]2CC[C@H]1C[C@@H](OC(=O)C(CO)c1ccccc1)C2` (some centres unmarked), the infection rate was 103%.
The infection rate of `N#Cc1nn(-c2c(Cl)cc(C(F)(F)F)cc2Cl)c(N)c1[S+]([O-])C(F)(F)F` (centres unmarked) is reported as 98.9%.
`CCOC(=O)CC(SP(=S)(OC)OC)C(=O)OCC` (centres unmarked) has an infection rate of 100%.
For `O=P1(NCCCl)OCCCN1CCCl` (centres unmarked), the infection rate was 78.1%.

Series 4
Compound: Cn1cncc1[C@@](O)(COc1ccc(C#N)cc1-c1ccc(OC(F)(F)F)cc1)c1ccc(C#N)cc1
Technique: competition with immobilised ligand
Tested at: 1 µM
It gave 100% for remaining binding (Homeodomain-interacting protein kinase 4 (HIPK4, Homo sapiens, UniProt Q8NE63); cell-free assay).
It gave 84% for remaining binding (Phosphatidylinositol 4,5-bisphosphate 3-kinase catalytic subunit delta isoform (PIK3CD, Homo sapiens, UniProt O00329); cell-free assay).
Eukaryotic translation initiation factor 2-alpha kinase 1 (EIF2AK1, Homo sapiens, UniProt Q9BQI3); cell-free assay — remaining binding: 100%.
It gave 90% for remaining binding (Mast/stem cell growth factor receptor Kit, autoinhibited (KIT, Homo sapiens, UniProt P10721); cell-free assay).
It gave 72% for remaining binding (Phosphatidylinositol 4,5-bisphosphate 3-kinase catalytic subunit alpha isoform (PIK3CA, Homo sapiens, UniProt P42336, M1043I); cell-free assay).
For Serine/threonine-protein kinase 38-like (STK38L, Homo sapiens, UniProt Q9Y2H1); binding: remaining binding read 87%.
The remaining binding was 78% (Casein kinase I isoform alpha (CSNK1A1, Homo sapiens, UniProt P48729); cell-free assay).
The remaining binding was 100% (Leucine-rich repeat serine/threonine-protein kinase 2 (LRRK2, Homo sapiens, UniProt Q5S007); cell-free assay).
For Activated CDC42 kinase 1 (TNK2, Homo sapiens, UniProt Q07912); cell-free assay: remaining binding read 100%.
The remaining binding was 100% (Serine/threonine-protein kinase RIO1 (RIOK1, Homo sapiens, UniProt Q9BRS2); cell-free assay).
For Mitogen-activated protein kinase kinase kinase 7 (MAP3K7, Homo sapiens, UniProt O43318); cell-free assay: remaining binding read 67%.
Phosphatidylinositol 4,5-bisphosphate 3-kinase catalytic subunit alpha isoform (PIK3CA, Homo sapiens, UniProt P42336, E545A); cell-free assay — remaining binding: 86%.

Repeated from above (series 1):
For added: menaquinone 32 µg/mL: MIC read over 64 µg/mL.
added: menaquinone 64 µg/mL — MIC: over 64 µg/mL.
The MIC was 64 µg/mL (≈ 38.4 µM) (added: menaquinone 2 µg/mL).
added: menaquinone 1 µg/mL — MIC: 64 µg/mL (≈ 38.4 µM).
